Results from different studies.
Lines come from different studies, so protocols differ. ± marks the error that the study gave.
Cell line: HeLa

Structure (SMILES) | test | test system | conditions | how to read | measurement | result
Cc1cc(/C=C2\CN(C(C)C)C/C(=C\c3cc(C)c(O)c(C)c3)C2=O)cc(C)c1O | PI flow cytometry |  | 2.5 µM, 24 h |  | G2/M phase cells | 18.9 ± 2.9%
[Cl][Pt-]1([Cl])[S]C(Nc2ccccc2)=N[N+]1=Cc1cccs1 | altered cell morphology, microscopy |  | confluent cultures |  | minimal cytotoxic concentration | 100 µM
CC(C)=CCCC(C)(O)C1CCC2(C)C1C(O)CC1C3(C)CCC(OC4OC(COC(=O)CCCCCN5C(=O)C=CC5=O)C(O)C(OC(=O)CCCCCN5C(=O)C=CC5=O)C4O)C(C)(C)C3CCC12C (centres unmarked) | annexin V/PI flow cytometry, item: early and late apoptosis |  | 20 µM, 24 h |  | apoptotic cells | 36.4%
C=C1C(=O)OC2C=C(C)CCC=C(C(=O)OC(C)C(C)(O)C(=O)OC3C(OC(C)=O)C(C(=O)OC)=CCCC(C)=CC4OC(=O)C(=C)C43)CC(OC(=O)C(C)=CC)C12 (centres unmarked) | PI staining flow cytometry |  | 3 µM, 24 h |  | G2/M phase cells | 22.9%
O=C(Cc1ccc(-c2ccc(OCCN3CCOCC3)cc2)cn1)NCc1ccc(F)cc1 | western blot, item: phospho-Src |  | 50 nM, 6 h |  | protein level | decreased
COc1cc([C@@H]2c3cc4c(cc3[C@@H](OCc3cc(-c5cccc(C#N)c5)no3)[C@H]3COC(=O)C23)OCO4)cc(OC)c1OC (some centres unmarked) | cell growth or viability, SRB |  | 48 h |  | GI50 | 12.2 µM
CC(C)[C@@H]1NC(=O)[C@H](Cc2ccc(OP(=O)(O)O)cc2)NC(=O)[C@H](CCCNC(=N)N)NC(=O)[C@H](CCCNC(=N)N)NC(=O)[C@@H]2CCCN2C(=O)[C@H]2CCCN2C(=O)[C@@H](CCCNC(=N)N)NC(=O)[C@H](Cc2ccc3ccccc3c2)NC(=O)[C@H](Cc2ccccc2)NC(=O)[C@H](CC(N)=O)NC1=O | flow cytometry | NF-labelled via miniPEG-Lys at Asn | 5 µM, 2 h | relative to: CPP9 cyclo(fΦRrRrQ) as 100% | cytosolic entry efficiency | 49%
CC1=[N+]2N=C(c3ccccc3)[O][Pd-2]2([Cl])[O+]=C2Oc3ccccc3C=C21 (centres unmarked) | annexin V/PI flow cytometry |  | IC50, 24 h | relative to: untreated | late apoptotic cells | 49 fold
CNC(=O)c1c(C)oc2cc(Oc3ncnc4cc(OC)c(OCCCCCCC(=O)NO)cc34)ccc12 | annexin V/7-AAD flow cytometry |  | 1.5 µM, 48 h |  | apoptotic cells | 18.3%
CC(C)(C)c1cc2c(O)c(c1)Cc1cc(C(C)(C)C)cc(c1OCC(=O)Nc1nccs1)Cc1cc(C(C)(C)C)cc(c1O)Cc1cc(C(C)(C)C)cc(c1OCC(=O)Nc1nccs1)COC2 | cell growth or viability, MTT |  | 15 µM, 72 h |  | inhibition | 54%
O=C(/C=C/c1ccc(O)cc1)OC(CO)C(=O)O (centres unmarked) | Wnt/β-catenin signalling, RT-qPCR, item: AXIN2 and B9L |  | 25 µM, 6 h, together with: LiCl 20 mM | relative to: TBP | mRNA level | no effect
COc1ccc(CCC(=O)Nc2nc3ccc(Cl)cc3s2)cc1OC | shotgun lipidomics, item: LPA 18:0 and LPG 16:0 |  | 10 µM, 18 h |  | lysophospholipid level | increased
CC(C)[C@H](NC(=O)[C@H](CCCNC(=N)N)NC(=O)C[C@@H](N)CCCN)C(=O)N[C@@H](Cc1c[nH]cn1)C(=O)N[C@@H](Cc1ccccc1)C(N)=O | Fluo-4 imaging |  | concentration not given |  | calcium spiking | inactive
CC(C)(C)c1cc2c(O)c(c1)Cc1cc(C(C)(C)C)cc(c1OCC(=O)Nc1cccc3cccnc13)Cc1cc(C(C)(C)C)cc(c1O)Cc1cc(C(C)(C)C)cc(c1OCC(=O)Nc1cccc3cccnc13)COC2 | cell growth or viability, MTT |  | 15 µM, 72 h |  | inhibition | 71%
COc1cc(C(=O)c2[nH]c(N)nc2-c2cccs2)cc(OC)c1OC | item: phospho-histone H3 |  | 200 nM, 12 h |  | mitotic cells | 23 ± 0.7%
COc1c(Cc2ccccc2O)c(O)c2c(c1Cc1ccccc1O)O[C@H](c1ccccc1)CC2=O | MTT |  | concentration not given, 72 h |  | cytotoxicity | inactive
O=c1c(/C=N/NC(=S)N/N=C/c2cc(Cl)ccc2O)coc2ccccc12 | western blot, item: phospho-ERK1/2 |  | 50 µM, 24 h |  | reduction in ERK1/2 phosphorylation | ~75%

Excerpt of the above:
Structure (SMILES) | test | test system | conditions | how to read | measurement | result
O=C(Cc1ccc(-c2ccc(OCCN3CCOCC3)cc2)cn1)NCc1ccc(F)cc1 | western blot, item: phospho-Src |  | 50 nM, 6 h |  | protein level | decreased
CC(C)(C)c1cc2c(O)c(c1)Cc1cc(C(C)(C)C)cc(c1OCC(=O)Nc1cccc3cccnc13)Cc1cc(C(C)(C)C)cc(c1O)Cc1cc(C(C)(C)C)cc(c1OCC(=O)Nc1cccc3cccnc13)COC2 | cell growth or viability, MTT |  | 15 µM, 72 h |  | inhibition | 71%
